{"data": "Measurements gathered from unrelated publications", "HCRTR1": "Orexin/Hypocretin receptor type 1 (HCRTR1, Homo sapiens, UniProt O43613)", "PIP4K2C": "Phosphatidylinositol 5-phosphate 4-kinase type-2 gamma (PIP4K2C, Homo sapiens, UniProt Q8TBX8)", "APP": "Amyloid-beta precursor protein (APP, Homo sapiens, UniProt P05067)", "MT-CYB": "MT-CYB (Plasmodium falciparum, UniProt Q02768)", "SMPD1": "Sphingomyelin phosphodiesterase (SMPD1, Homo sapiens, UniProt P17405)", "PPIA": "Peptidyl-prolyl cis-trans isomerase A (PPIA, Homo sapiens, UniProt P62937)", "Trypanothione synthetase": "Trypanothione synthetase (Leishmania infantum, UniProt A4I2Z3)", "CA2": "Carbonic anhydrase 2 (CA2, Homo sapiens, UniProt P00918)", "note": "Protocols differ between the studies behind these lines. ± gives the spread as reported.", "sequence of UniProt P62937 (whole entry, looked up)": "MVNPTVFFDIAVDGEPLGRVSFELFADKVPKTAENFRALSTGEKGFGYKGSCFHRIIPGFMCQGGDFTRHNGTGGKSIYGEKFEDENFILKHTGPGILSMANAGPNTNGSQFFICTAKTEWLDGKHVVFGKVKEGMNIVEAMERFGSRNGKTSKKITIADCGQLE", "sequence of UniProt P17405 (whole entry, looked up)": "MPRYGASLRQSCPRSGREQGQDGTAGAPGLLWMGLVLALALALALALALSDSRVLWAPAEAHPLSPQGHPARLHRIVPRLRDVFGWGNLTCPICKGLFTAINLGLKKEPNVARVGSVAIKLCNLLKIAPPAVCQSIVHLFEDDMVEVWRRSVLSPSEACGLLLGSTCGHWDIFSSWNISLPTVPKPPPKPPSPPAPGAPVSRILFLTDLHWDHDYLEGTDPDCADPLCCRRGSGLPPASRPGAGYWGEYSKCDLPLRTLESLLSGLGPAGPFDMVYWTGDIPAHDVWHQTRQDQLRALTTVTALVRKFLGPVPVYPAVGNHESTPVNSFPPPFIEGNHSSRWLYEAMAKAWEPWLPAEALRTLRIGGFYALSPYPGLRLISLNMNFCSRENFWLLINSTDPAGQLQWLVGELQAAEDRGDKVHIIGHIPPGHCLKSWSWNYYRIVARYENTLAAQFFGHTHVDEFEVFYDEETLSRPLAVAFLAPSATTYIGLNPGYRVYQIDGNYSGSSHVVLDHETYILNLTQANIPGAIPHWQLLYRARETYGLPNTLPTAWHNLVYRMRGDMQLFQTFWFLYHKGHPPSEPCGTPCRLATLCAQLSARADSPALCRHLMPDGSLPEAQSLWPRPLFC", "sequence of UniProt Q02768 (whole entry, looked up)": "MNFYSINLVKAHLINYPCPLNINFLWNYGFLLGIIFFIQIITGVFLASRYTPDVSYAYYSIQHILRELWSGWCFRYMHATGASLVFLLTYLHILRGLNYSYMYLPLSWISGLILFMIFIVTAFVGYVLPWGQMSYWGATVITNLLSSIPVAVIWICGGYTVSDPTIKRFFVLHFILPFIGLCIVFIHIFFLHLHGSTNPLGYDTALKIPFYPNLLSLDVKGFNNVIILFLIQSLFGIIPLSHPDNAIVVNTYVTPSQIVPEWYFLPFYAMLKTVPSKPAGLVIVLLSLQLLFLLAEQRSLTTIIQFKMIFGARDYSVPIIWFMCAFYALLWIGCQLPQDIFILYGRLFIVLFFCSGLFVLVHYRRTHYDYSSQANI", "sequence of UniProt Q00195 (whole entry, unmodified, looked up)": "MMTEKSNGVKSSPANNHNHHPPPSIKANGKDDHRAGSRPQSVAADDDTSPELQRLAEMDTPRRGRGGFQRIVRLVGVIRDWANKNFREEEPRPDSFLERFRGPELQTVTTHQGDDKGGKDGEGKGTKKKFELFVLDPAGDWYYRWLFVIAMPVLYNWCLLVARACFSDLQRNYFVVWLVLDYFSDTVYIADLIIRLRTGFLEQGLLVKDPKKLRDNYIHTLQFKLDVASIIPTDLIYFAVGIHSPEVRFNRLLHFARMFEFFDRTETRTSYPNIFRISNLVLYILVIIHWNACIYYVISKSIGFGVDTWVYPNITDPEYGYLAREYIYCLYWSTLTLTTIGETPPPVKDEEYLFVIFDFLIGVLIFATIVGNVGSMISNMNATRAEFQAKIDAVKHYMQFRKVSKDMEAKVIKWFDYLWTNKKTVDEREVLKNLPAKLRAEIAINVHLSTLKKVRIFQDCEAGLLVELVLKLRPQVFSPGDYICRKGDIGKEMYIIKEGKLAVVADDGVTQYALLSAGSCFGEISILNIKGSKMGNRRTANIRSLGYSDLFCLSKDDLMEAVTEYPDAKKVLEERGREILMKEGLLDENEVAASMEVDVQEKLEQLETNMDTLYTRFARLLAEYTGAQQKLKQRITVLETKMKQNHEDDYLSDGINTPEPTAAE", "sequence of UniProt O43613 (whole entry, looked up)": "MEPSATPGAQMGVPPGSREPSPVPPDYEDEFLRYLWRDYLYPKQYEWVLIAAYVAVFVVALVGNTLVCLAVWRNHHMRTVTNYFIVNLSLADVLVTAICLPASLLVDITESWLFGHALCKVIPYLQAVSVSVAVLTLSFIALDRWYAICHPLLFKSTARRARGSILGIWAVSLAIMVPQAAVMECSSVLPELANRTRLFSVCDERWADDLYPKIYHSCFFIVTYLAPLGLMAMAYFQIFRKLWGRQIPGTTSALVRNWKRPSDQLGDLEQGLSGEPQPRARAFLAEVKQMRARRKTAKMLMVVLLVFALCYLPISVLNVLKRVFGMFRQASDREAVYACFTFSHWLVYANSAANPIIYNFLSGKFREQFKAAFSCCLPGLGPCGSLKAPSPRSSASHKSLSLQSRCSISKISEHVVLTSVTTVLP", "sequence of UniProt Q8TBX8 (whole entry, looked up)": "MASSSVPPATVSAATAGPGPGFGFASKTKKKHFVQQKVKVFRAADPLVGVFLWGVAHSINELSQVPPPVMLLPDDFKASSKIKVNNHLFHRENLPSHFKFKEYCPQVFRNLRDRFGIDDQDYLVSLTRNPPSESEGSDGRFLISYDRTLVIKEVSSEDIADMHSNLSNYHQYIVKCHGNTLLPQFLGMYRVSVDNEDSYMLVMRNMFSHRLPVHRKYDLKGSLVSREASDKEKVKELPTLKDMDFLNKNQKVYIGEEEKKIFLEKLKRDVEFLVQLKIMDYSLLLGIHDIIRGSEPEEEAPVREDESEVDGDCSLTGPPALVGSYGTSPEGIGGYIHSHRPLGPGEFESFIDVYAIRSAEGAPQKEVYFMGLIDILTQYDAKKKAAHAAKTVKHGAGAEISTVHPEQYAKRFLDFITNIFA", "sequence of UniProt P50750 (whole entry, looked up)": "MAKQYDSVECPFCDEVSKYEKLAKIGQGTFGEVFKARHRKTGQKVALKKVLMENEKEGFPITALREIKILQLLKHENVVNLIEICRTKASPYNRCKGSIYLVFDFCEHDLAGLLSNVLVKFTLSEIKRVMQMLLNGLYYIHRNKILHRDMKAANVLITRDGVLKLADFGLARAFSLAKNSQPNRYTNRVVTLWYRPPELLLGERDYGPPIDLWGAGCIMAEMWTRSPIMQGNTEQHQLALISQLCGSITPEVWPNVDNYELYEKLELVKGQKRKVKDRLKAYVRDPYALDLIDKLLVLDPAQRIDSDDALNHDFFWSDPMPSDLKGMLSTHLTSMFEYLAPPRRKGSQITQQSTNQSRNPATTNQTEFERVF", "sequence of UniProt P09211 (whole entry, looked up)": "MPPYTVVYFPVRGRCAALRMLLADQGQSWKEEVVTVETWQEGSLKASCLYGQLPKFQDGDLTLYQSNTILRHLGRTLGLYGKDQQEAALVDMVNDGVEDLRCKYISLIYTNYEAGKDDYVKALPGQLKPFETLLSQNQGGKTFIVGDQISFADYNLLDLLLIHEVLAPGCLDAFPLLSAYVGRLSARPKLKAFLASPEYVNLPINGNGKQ", "sequence of UniProt Q62645 (whole entry, looked up)": "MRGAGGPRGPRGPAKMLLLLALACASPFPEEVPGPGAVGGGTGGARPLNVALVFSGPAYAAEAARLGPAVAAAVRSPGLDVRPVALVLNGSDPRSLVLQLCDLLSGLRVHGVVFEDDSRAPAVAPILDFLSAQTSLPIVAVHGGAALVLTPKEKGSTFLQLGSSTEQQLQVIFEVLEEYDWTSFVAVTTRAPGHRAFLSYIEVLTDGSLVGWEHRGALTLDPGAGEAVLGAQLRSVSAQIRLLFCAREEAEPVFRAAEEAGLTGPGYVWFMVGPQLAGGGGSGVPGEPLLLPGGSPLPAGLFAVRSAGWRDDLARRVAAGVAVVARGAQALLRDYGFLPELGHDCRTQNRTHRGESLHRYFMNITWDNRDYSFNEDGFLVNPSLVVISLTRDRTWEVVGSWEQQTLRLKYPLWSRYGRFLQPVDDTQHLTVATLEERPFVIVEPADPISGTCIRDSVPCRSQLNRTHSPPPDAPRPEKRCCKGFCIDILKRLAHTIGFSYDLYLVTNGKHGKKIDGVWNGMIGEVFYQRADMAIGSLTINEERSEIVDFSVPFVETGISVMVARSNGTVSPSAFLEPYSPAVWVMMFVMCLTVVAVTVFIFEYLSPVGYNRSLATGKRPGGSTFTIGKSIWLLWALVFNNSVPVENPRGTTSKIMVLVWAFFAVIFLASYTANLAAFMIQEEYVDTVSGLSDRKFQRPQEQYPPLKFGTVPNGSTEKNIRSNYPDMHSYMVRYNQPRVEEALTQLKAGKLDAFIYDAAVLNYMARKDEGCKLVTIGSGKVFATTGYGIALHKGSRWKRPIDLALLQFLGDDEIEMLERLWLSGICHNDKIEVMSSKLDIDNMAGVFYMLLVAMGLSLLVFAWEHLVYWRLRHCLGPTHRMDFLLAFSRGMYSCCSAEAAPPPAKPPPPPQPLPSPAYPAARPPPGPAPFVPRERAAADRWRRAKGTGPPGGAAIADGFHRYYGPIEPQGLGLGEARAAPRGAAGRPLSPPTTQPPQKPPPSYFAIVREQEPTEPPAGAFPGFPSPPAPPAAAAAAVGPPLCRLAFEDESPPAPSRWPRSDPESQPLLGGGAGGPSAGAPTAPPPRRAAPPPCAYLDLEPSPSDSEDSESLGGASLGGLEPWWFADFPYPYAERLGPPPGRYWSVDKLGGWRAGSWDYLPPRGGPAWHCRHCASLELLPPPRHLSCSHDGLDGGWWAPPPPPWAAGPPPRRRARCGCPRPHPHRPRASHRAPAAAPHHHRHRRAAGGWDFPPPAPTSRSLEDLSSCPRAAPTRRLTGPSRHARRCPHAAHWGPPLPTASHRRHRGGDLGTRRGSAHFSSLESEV"}
{"Compound": "COc1cc2c(cc1OC)C(Cc1ccc(OS(C)(=O)=O)c(OC)c1)N(CC(=O)NCc1ccccc1)CC2 (stereo not drawn)", "target or system": "HCRTR1", "test": "calcium signal, antagonist, fluorescence", "measurement": "Kb", "value": "480 nM"}
{"Compound": "CCCCCCCC(=O)OC[C@H](CO)OC(=O)CCCCCCC", "target or system": "Cnga2 (Rattus norvegicus, UniProt Q00195)", "test": "cGMP-activated current, inside-out patch, Xenopus oocytes", "setting": "0.5 µM, together with: cGMP 100 µM, saturating", "measurement": "inhibition", "value": "10%"}
{"Compound": "CN(C)C/C=C/C(=O)Nc1cccc(C(=O)Nc2ccc(Nc3nccc(-c4c(-c5ccccc5)nn5ccccc45)n3)cc2)c1", "target or system": "PIP4K2C", "test": "ATP-biotin probe labeling, KiNativ", "test system": "A-375", "setting": "1 µM, 3 h, second of two sites", "measurement": "inhibition", "value": "24.3%"}
{"Compound": "CC[C@H](C)[C@H](NC(=O)[C@@H](NC(=O)CN)C(C)C)C(=O)N[C@@H](C)C(N)=O", "target or system": "APP", "test": "amyloid aggregation, inhibitor, fluorescence", "setting": "2 µM, 24 h", "measurement": "inhibition", "value": "84.4%"}
{"Compound": "CNC(=O)[C@H](Cc1c[nH]c2ccccc12)NC(=O)[C@@H](CC(=O)NO)CC(C)C", "target or system": "Matrix metalloproteinase-14, ectodomain (MMP14, Homo sapiens, UniProt P50281)", "test": "amyloid plaque degradation", "test system": "Tg2576 brain sections", "setting": "100 µM, 5 days, 37 °C", "measurement": "inhibition", "value": "inhibited"}
{"Compound": "O=C(Nc1ccccc1O)c1ccc(S(=O)(=O)c2ccc(Cl)cc2)cc1", "target or system": "MT-CYB", "test": "enzyme activity, inhibitor", "setting": "0.5 µM", "measurement": "inhibition", "value": "65.5%"}
{"Compound": "S=c1nc(C2CC2)[nH]c2ccccc12", "target or system": "SMPD1", "test": "inhibitor", "setting": "concentration not given, pH 6.5, together with: sphingomyelin substrate", "measurement": "inhibition", "value": "inhibited"}
{"Compound": "COC(=O)c1cc(Cc2ccc(NC(=O)c3ccc(Cl)cc3)c(C(=O)OC)c2)ccc1NC(=O)c1ccc(Cl)cc1", "target or system": "PPIA", "test": "enzyme activity, inhibitor", "setting": "10 µM", "measurement": "inhibition", "value": "10.2%"}
{"Compound": "Cc1cc(Nc2ccc(C(F)(F)F)nc2)n2nc(C(C)(F)F)nc2n1", "target or system": "off-target panel", "setting": "10 µM, all except adenosine A3", "measurement": "inhibition", "value": "≤ 19%"}
{"Compound": "Cc1noc(NS(=O)(=O)c2ccc(NC(=O)c3cc(-c4cccc(Br)c4)nc4ccccc34)cc2)c1C", "target or system": "PPIA", "test": "enzyme activity, inhibitor", "setting": "10 µM", "measurement": "inhibition", "value": "3.2%"}
{"Compound": "CC[C@H](C)[C@H](NC(=O)[C@H](NC(=O)[C@@H](N)C(C)C)C(C)C)C(=O)N[C@@H](C)C(N)=O", "target or system": "APP", "test": "amyloid aggregation, inhibitor, fluorescence", "setting": "2 µM, 24 h", "measurement": "inhibition", "value": "89.3%"}
{"Compound": "O=C(O)/C=C/C1=CC(=O)C(=O)C=C1", "target or system": "GSTP1 (Homo sapiens, UniProt P09211)", "test": "enzyme activity", "test system": "human placenta", "setting": "10 to 50 µM, together with: CDNB", "measurement": "inhibition", "value": "23 to 67%"}
{"Compound": "CC(C)(C)c1cnc(CSc2cnc(NC(=O)C3CCNCC3)s2)o1", "target or system": "CDK9 (Homo sapiens, UniProt P50750)", "test": "probe labeling, KiNativ live-cell profiling", "test system": "MOLT-4", "setting": "0.25 µM", "measurement": "inhibition", "value": "34.1%"}
{"Compound": "Clc1cccc(Nc2ccc3c(N4CCCCC4)ncnc3n2)c1", "target or system": "MT-CYB", "test": "enzyme activity, inhibitor", "setting": "0.5 µM", "measurement": "inhibition", "value": "4.76%"}
{"Compound": "COc1ccc2nc(/C=C/c3cccc([N+](=O)[O-])c3)n(-c3ccc(C(=O)O)cc3)c(=O)c2c1", "target or system": "Ionotropic glutamate receptor NMDA 1/2D (Rattus norvegicus, UniProt P35439+Q62645)", "test": "ion current, inhibitor, whole-cell voltage clamp", "test system": "HEK293", "setting": "10 µM, instantaneous current, together with: glutamate pre-applied", "measurement": "inhibition", "value": "~66%"}
{"Compound": "CCOC(=O)CN1C(=O)Cc2c([nH]c3ccc(Br)cc23)-c2ccc(Cl)cc21", "target or system": "Trypanothione synthetase", "test": "enzyme activity", "setting": "30 µM", "measurement": "inhibition", "value": "36%"}
{"Compound": "CC[C@H](C)[C@H](NC(=O)[C@@H](NC(=O)[C@H]1CCCN1)C(C)C)C(=O)N[C@@H](C)C(N)=O", "target or system": "APP", "test": "amyloid aggregation, inhibitor, fluorescence", "setting": "2 µM, 24 h", "measurement": "inhibition", "value": "60.8%"}
{"Compound": "c1ccc(CCNc2ncnc3c2[nH]c2ccccc23)cc1", "target or system": "MT-CYB", "test": "enzyme activity, inhibitor", "setting": "0.5 µM", "measurement": "inhibition", "value": "63.9%"}
{"Compound": "Cc1ccc(C2CC(c3cc(Br)ccc3O)=NN2c2ccc(S(N)(=O)=O)cc2)cc1 (stereo not drawn)", "target or system": "CA2", "test": "enzyme activity, inhibitor, absorbance", "setting": "1 mM", "measurement": "inhibition", "value": "31%"}
{"Compound": "COc1cc(C(=O)Nc2scc(-c3ccc(Br)cc3)c2C(=O)O)cc(OC)c1OC", "target or system": "SMPD1", "test": "inhibitor", "setting": "concentration not given, pH 6.5, together with: sphingomyelin substrate", "measurement": "inhibition", "value": "inactive"}
{"Compound": "C[C@H]1O[C@H](O[C@H]2[C@H](O)[C@@H](O)[C@@H](O[C@H]3[C@H](O)[C@@H](O)C(O)O[C@@H]3CO)O[C@@H]2CO)[C@H](O)[C@@H](O)[C@@H]1N[C@H]1C=C(CO)[C@@H](O)[C@H](O)[C@H]1O (stereo partly drawn)", "target or system": "GAA (Homo sapiens, UniProt P10253)", "test": "enzyme activity, inhibitor, fluorescence", "setting": "1.43 mM, pH 4, lysate", "measurement": "inhibition", "value": "66%"}
{"Compound": "COc1cc(OC)cc(C(=O)Nc2ccc(Cc3ccc(NC(=O)c4cc(OC)cc(OC)c4)cc3)cc2)c1", "target or system": "PPIA", "test": "enzyme activity, inhibitor", "setting": "10 µM", "measurement": "inhibition", "value": "43%"}
{"Compound": "Cc1cccc(C)c1C(=O)OCC(=O)[C@H](CCCCN)NC(=O)[C@H](CCCN=C(N)N)NC(=O)OCc1ccccc1", "target or system": "Cathepsin B (CTSB, Homo sapiens, UniProt P07858)", "test": "peptide library cleavage, MSP-MS", "setting": "64 nM, 1 h, pH 7.2", "measurement": "inhibition", "value": "inhibited"}
{"Compound": "Cc1cc(NC(=O)c2cccc(NC(=O)/C=C/CN(C)C)c2)ccc1Nc1nccc(-c2cccnc2)n1", "target or system": "PIP4K2C", "test": "ATP-biotin probe labeling, KiNativ", "test system": "A-375", "setting": "1 µM, 3 h, second of two sites", "measurement": "inhibition", "value": "32.2%"}
{"Compound": "CC[C@H](C)[C@H](NC(=O)[C@@H](NC(=O)[C@@H](N)C(C)C)C(C)C)C(=O)NC(C)(C)C(N)=O", "target or system": "APP", "test": "amyloid aggregation, inhibitor, fluorescence", "setting": "2 µM, 24 h", "measurement": "inhibition", "value": "24.9%"}
{"Compound": "O=C(CN1C(=O)Cc2c([nH]c3ccc(Br)cc23)-c2ccc(Cl)cc21)N1CCCCC1", "target or system": "Trypanothione synthetase", "test": "enzyme activity", "setting": "30 µM", "measurement": "inhibition", "value": "39%"}
{"Compound": "CC(C)[C@H](NC(=O)[C@@H]1CCCN1C(=O)[C@H](CCCNC(=N)N)NC(=O)[C@H](CS)NC(=O)[C@H](Cc1c[nH]c2ccccc12)NC(=O)[C@H](CCCNC(=N)N)NC(=O)[C@@H](Cc1ccccc1)NC(=O)[C@H](Cc1c[nH]cn1)NC(=O)[C@H](CCC(=O)O)NC(=O)[C@H](CS)NC(=O)[C@H](CS)NC(=O)[C@H](CCCCN)NC(=O)[C@@H]1CC(=O)N[C@@H](CCCNC(=N)N)C(=O)N[C@@H](C)C(=O)N[C@@H](CC(=O)O)C(=O)N[C@H](Cc2ccc(O)cc2)C(=O)N1)C(N)=O [technetium-99m labelled]", "test system": "C57 mice, muscle", "setting": "intravenous, 0.037 MBq, 4 h", "measurement": "tissue uptake", "value": "0.18 ± 0.04 %ID/g"}
{"Compound": "COC(=O)c1cc(Cc2ccc(NC(=O)c3ccccc3)c(C(=O)OC)c2)ccc1NC(=O)c1ccccc1", "target or system": "PPIA", "test": "enzyme activity, inhibitor", "setting": "10 µM", "measurement": "inhibition", "value": "11.2%"}
{"Compound": "NS(=O)(=O)c1ccc(N2N=C(c3ccc(F)cc3O)CC2c2ccc(Br)cc2)cc1 (stereo not drawn)", "target or system": "CA2", "test": "enzyme activity, inhibitor, absorbance", "setting": "1 mM", "measurement": "inhibition", "value": "26%"}
{"Compound": "CC(C)C[C@H](NC(=O)[C@@H](NC(=O)[C@@H](N)C(C)C)C(C)C)C(=O)N[C@@H](C)C(N)=O", "target or system": "APP", "test": "amyloid aggregation, inhibitor, fluorescence", "setting": "4 µM, 24 h", "measurement": "inhibition", "value": "16.5%"}
{"Compound": "CC[C@@H](C)[C@H](NC(=O)C(=O)CCCCc1ccc(OC)cc1)C(=O)NCC(=O)OC(C)(C)C", "target or system": "PLA2G4A (Homo sapiens, UniProt P47712)", "test": "enzyme activity, mixed micelle", "setting": "0.091 mole fraction", "measurement": "inhibition", "value": "57.3 ± 3.3%"}
{"Compound": "CC[C@H](C)[C@H](NC(=O)[C@@H](NC(=O)[C@@H](N)Cc1ccccc1)C(C)C)C(=O)N[C@@H](C)C(N)=O", "target or system": "APP", "test": "amyloid aggregation, inhibitor, fluorescence", "setting": "2 µM, 24 h", "measurement": "inhibition", "value": "51.9%"}
{"Compound": "Clc1ccc(SCCOCCN2CCCCCC2)cc1.O=C(O)C(=O)O", "target or system": "SMPD1", "test": "enzyme activity, inhibitor", "setting": "concentration not given, together with: HMU-PC substrate", "measurement": "inhibition", "value": "inactive"}
{"Compound": "C=C(Cl)C(=O)Nc1cc(Nc2nc(Nc3cnn(C)c3)c3sccc3n2)c(OC)cc1N(C)CCN(C)C", "target or system": "EGFR (Homo sapiens, UniProt P00533, L858R/T790M)", "test": "enzyme activity, inhibitor, ELISA", "setting": "0.1 µM", "measurement": "inhibition", "value": "96.7%"}
{"Compound": "COc1cc2c(cc1OC)C(Cc1cccc(N)c1)N(CC(=O)NCc1ccccc1)CC2 (stereo not drawn)", "target or system": "HCRTR1", "test": "calcium signal, antagonist, fluorescence", "measurement": "Kb", "value": "1310 nM"}
{"Compound": "Nc1nc2c(ncn2[C@@H]2O[C@@H]3COP(=O)(O)O[C@H]3[C@H]2O)c(=O)[nH]1", "target or system": "Cnga2 (Rattus norvegicus, UniProt Q00195, E583M)", "test": "agonist, inside-out patch clamp", "setting": "concentration not given", "how to read": "relative to: saturating cAMP", "measurement": "relative maximal current", "value": "~40%"}
